Published values gathered from unrelated publications.
Each numbered part is a random draw from the data of one study; scales do not carry over between parts.

Block 1 — technique: protein binding microarray; molecule type: double-stranded DNA, one strand shown; sample: in vitro; tested at: not given; baseline: not given; direction: higher = stronger binding; endpoint: E-score
Target: Histone acetyltransferase KAT6A, winged helix 2, GST fusion (KAT6A, Homo sapiens, UniProt Q92794, residues 85-181)
Setting: 8-mer, flanks averaged, mean of 2 arrays, mostly near background
Residues (chain): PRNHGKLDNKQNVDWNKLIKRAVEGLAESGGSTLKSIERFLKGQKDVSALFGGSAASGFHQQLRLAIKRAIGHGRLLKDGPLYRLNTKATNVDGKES
ACCGAACA: 0.00498
AGCCTGGC: 0.0466
CGTCACAA: 0.103
GAGCCGCA: 0.0812

Block 2 — technique: protein-binding microarray; molecule type: double-stranded DNA, one strand shown; sample: in vitro; tested at: 0.8 µM; setting: whole 60-bp probe, no competitor; direction: higher = stronger binding; endpoint: fluorescence intensity; all sequences stand within: … GTCTTGATTCGCTTGACGCTGCTG
Target: Centromere-binding protein 1, full length, N-terminal tag (CBF1, Saccharomyces cerevisiae, UniProt P17106, residues 1-351)
Sequence of UniProt P17106 (whole entry, looked up): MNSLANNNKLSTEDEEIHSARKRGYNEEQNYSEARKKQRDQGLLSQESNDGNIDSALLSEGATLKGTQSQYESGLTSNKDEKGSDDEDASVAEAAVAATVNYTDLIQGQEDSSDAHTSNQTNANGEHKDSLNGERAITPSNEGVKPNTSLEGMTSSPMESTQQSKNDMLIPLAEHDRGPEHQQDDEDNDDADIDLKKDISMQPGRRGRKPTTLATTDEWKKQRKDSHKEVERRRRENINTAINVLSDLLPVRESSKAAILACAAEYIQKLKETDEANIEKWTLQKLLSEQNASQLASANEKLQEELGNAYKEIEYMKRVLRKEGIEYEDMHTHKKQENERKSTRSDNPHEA
GAACTAGCTTCAGCTGATGTGCCATGTAACGCCTAG: 537 a.u.
GAAGTAATCATACACGTGAAAAGCACGTGAACATAG: 13800 a.u.
CCTAACTACTATATACACGTGCCATAGCTTCGTACA: 7430 a.u.
GAACACTAGTCACATCACATGCCAGGCCTTTCTTAG: 1520 a.u.
TGTACGAAGCTATGTCACGTTCGTATAGTAGTTAGG: 1390 a.u.

Block 3 — technique: protein-binding microarray; molecule type: double-stranded DNA, one strand shown; sample: in vitro; tested at: 250 nM; setting: 60-bp whole probe; with: salmon DNA 0.4 mg/ml; baseline: random background probes; direction: higher = stronger binding; endpoint: log fluorescence; all sequences stand within: GCCTAGCAC … GTCTTGATTCGCTTGACGCTGCTG
Target: Interferon regulatory factor 7, full length, phosphomimetic (IRF7, Homo sapiens, UniProt Q92985, residues 1-503, S101K/S471D/S472D/S475D/S476D/S477D/S483D/S484D/S487D)
Sequence of UniProt Q92985 (whole entry, unmodified, looked up): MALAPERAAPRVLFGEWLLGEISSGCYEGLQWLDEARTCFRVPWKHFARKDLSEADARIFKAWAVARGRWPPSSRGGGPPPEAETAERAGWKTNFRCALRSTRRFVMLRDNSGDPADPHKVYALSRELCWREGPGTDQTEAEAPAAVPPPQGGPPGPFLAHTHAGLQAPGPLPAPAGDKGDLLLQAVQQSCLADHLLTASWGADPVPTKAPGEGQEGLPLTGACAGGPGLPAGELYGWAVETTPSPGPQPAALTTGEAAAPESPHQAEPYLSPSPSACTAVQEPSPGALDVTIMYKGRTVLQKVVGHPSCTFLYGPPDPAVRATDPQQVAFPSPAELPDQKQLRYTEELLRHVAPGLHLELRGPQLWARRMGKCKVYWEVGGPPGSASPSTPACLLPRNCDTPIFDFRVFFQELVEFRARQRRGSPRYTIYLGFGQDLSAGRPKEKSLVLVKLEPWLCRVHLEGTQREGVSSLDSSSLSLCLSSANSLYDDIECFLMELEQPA
TTAGGTATCGACACTGAGTTAGTGCTA: -0.194 z-score
TTAGGACTGGGACTGGTTTAGTGCTAG: -0.0142 z-score
GACGATCTCAGTTCCGAGACGTGCTAG: 0.161 z-score
GACGATTTCGGGTATCGAGTCGTGCTA: 1.52 z-score
GACGATATCAATATCGAGACGTGCTAG: 0.102 z-score
GACGGTTTCGGGTACCGGGACGTGCTA: 6.14 z-score
GACGATCTGAGACTGGAGACGTGCTAG: -0.239 z-score
AGTGGAGTTCATTGTCATTTGTGCTAG: 0.233 z-score

Further values, each from its own experiment
PhoQ, residues 284 288 289 292 302 303 TASMAF  fold induction (PhoP, residues 12 14 15 18 19 SYFRT (Escherichia coli, UniProt P23836); Sort-seq, item: YFP reporter; E. coli; PhoQ-PhoP variant library, with: 10 µM Mg2+; baseline: high Mg2+ state, higher = stronger signaling): 6.92

For quick reference, copied from above (block 3):
GACGATCTGAGACTGGAGACGTGCTAG: -0.239 z-score
AGTGGAGTTCATTGTCATTTGTGCTAG: 0.233 z-score
